Measurements pooled from the literature.
Compare with care: the assays were run in different laboratories.
PPARG ligand-binding domain: Peroxisome proliferator-activated receptor gamma, ligand-binding domain (PPARG, Homo sapiens, UniProt P37231)
UniProt P37231, sequence (whole entry, looked up): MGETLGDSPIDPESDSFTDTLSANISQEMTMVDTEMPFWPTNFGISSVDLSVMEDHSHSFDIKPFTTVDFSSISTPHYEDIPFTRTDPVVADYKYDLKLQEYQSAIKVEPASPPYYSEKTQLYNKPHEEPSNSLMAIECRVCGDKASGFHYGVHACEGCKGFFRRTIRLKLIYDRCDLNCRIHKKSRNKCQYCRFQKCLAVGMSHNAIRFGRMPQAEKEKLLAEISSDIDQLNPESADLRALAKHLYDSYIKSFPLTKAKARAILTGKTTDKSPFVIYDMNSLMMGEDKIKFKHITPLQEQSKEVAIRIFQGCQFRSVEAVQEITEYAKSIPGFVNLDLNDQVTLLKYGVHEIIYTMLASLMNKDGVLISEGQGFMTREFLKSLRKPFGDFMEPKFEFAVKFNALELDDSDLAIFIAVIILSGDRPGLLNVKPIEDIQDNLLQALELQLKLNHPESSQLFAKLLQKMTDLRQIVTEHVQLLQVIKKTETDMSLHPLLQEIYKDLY
Rhomboid protease AarA: Rhomboid protease AarA (Providencia stuartii, UniProt P46116)
UniProt P46116, sequence (whole entry, looked up): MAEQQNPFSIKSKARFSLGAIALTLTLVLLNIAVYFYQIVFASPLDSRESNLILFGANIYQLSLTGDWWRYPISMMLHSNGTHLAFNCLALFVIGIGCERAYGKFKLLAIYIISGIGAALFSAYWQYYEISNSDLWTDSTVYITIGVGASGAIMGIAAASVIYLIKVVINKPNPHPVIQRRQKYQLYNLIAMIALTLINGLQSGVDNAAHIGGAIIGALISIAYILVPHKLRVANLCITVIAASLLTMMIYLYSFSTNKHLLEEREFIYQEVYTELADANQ
SCN5A: Sodium channel protein type 5 subunit alpha (SCN5A, Homo sapiens, UniProt Q14524)
UniProt Q14524, sequence (whole entry, looked up): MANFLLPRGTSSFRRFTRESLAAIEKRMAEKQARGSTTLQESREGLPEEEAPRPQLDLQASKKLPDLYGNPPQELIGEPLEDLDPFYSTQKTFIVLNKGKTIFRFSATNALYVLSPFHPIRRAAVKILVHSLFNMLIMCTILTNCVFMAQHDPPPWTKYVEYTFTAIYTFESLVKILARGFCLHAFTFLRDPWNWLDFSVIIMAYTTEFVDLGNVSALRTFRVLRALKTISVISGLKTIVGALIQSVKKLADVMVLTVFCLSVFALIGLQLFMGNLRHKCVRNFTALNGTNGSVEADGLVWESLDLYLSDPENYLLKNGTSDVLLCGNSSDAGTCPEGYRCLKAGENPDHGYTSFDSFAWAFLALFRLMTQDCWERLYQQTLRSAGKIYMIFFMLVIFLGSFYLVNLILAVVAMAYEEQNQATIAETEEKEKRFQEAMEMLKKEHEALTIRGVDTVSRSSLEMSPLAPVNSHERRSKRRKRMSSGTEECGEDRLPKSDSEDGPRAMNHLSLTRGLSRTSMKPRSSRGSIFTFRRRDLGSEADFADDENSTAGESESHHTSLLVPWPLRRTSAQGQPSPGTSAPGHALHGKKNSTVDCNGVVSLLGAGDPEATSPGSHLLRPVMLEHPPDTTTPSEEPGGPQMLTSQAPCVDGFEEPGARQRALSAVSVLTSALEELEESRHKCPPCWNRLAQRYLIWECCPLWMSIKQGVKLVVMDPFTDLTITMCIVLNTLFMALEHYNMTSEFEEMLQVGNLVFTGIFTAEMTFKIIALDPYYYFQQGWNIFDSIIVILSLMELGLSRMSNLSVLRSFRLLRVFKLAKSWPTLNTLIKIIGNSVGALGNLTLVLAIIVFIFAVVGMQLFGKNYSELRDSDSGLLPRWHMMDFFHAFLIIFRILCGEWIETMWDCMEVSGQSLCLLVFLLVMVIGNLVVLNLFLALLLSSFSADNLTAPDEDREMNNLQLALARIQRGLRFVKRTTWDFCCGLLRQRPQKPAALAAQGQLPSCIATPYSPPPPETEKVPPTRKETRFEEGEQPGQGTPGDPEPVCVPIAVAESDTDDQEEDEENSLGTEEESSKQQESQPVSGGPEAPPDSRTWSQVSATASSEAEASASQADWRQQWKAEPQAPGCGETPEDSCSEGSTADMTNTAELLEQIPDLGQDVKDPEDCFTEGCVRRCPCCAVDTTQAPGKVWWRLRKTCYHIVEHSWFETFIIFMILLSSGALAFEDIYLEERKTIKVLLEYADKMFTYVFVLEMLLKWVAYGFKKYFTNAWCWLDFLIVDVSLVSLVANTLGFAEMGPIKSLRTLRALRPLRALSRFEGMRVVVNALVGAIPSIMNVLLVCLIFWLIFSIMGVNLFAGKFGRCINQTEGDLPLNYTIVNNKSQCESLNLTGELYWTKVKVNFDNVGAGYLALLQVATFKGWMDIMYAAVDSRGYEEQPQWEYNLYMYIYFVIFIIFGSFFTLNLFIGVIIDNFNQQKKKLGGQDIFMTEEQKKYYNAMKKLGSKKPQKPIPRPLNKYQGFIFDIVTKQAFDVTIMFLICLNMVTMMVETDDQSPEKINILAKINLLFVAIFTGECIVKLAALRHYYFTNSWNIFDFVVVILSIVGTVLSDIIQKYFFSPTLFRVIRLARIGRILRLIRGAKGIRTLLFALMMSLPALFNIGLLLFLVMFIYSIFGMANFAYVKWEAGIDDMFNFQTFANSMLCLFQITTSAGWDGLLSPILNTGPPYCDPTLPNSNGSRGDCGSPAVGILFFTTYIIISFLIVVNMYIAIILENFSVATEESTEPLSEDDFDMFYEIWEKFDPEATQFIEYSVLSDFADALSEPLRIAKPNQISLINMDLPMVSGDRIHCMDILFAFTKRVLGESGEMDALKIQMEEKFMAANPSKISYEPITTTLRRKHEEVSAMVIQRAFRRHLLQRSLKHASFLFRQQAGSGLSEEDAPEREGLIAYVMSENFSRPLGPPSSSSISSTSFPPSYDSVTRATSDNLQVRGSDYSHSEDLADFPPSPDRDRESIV
PPARG: Peroxisome proliferator-activated receptor gamma (PPARG, Homo sapiens, UniProt P37231)
UniProt O75582, sequence (whole entry, looked up): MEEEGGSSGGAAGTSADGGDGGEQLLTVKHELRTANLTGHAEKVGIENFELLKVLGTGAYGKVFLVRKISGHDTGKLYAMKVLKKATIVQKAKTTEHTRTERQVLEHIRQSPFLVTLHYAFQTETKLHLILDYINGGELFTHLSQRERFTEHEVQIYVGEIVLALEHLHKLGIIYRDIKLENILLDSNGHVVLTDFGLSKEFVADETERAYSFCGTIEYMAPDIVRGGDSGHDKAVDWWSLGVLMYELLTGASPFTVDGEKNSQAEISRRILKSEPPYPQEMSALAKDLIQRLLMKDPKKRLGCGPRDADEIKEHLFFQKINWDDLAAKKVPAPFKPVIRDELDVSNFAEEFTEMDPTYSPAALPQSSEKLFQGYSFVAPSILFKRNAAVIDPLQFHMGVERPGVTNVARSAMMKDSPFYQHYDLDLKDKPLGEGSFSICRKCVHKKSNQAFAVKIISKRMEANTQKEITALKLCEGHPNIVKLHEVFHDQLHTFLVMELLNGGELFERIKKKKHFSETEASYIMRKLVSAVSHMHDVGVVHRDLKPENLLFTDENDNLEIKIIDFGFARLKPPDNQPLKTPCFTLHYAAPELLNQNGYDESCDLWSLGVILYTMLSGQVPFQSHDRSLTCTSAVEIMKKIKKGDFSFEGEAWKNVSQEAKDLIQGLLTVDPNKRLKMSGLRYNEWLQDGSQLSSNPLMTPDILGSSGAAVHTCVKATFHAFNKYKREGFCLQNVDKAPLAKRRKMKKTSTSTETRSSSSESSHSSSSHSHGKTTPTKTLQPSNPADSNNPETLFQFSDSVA
UniProt P28064, sequence (whole entry, looked up): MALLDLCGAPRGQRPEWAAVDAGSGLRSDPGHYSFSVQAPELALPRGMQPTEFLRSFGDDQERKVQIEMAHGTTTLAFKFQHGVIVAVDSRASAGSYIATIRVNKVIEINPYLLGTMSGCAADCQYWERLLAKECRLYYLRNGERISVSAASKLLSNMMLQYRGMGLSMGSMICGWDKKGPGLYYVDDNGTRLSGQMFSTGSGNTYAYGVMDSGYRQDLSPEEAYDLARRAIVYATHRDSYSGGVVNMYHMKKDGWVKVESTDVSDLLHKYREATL
UniProt P18421, sequence (whole entry, looked up): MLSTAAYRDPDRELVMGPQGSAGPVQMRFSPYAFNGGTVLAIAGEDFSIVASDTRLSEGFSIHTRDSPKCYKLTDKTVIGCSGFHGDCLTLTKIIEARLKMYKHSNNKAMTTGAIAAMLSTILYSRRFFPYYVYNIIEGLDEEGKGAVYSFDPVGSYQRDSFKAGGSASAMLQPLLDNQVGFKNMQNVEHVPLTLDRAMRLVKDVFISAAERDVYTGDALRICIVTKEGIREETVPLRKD
UniProt P08631, sequence (whole entry, looked up): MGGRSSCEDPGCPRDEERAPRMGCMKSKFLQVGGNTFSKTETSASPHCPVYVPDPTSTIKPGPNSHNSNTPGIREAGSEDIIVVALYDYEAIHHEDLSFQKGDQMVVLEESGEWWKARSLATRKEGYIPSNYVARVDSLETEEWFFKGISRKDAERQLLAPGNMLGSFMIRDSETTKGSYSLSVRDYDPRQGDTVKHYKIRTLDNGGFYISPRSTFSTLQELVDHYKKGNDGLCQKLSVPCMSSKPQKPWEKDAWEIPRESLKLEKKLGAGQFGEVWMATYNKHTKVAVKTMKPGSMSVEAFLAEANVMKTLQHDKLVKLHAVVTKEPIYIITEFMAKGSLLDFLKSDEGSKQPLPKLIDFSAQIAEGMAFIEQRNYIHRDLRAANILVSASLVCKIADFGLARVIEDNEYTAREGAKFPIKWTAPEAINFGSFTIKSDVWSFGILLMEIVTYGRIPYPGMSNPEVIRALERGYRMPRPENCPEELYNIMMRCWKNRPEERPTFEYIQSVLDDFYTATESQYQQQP
UniProt Q07820, sequence (whole entry, looked up): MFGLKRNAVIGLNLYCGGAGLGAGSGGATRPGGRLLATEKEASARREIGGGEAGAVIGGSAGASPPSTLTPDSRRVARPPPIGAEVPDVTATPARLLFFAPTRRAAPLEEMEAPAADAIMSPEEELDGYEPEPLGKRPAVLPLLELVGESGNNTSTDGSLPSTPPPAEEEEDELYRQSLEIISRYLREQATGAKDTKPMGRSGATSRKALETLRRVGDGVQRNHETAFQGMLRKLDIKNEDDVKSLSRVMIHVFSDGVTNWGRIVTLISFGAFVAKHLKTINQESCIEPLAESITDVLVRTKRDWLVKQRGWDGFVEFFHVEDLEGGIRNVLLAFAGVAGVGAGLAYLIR

SMILES | target | assay | test system | setting | IC50 [µM]
Cc1c(Cc2ccc(OC(C)(C)C(=O)O)cc2)c2ccc(C(=O)N[C@@H](C)c3ccc(C4CC4)cc3)cc2n1C | PPARG ligand-binding domain | reporter gene, luciferase reporter | HEK293T, Gal4-PPARγ LBD | – | 3.02
O=C1CC(c2ccccc2)N1S(=O)(=O)c1cccc(-c2ccccc2)c1 (centres unmarked) | Rhomboid protease AarA | enzyme activity, inhibitor, fluorogenic peptide | – | 148 min pre-incubation | 6.6
Cc1ccc(C(=O)Nc2ccnc(S(N)(=O)=O)c2)c(N2CCCC(F)(F)CC2)n1 | SCN5A | ion current, automated whole-cell patch clamp | – | pH 7.3 | > 33.8
Cc1nn(-c2cccc(N)c2)c(=O)c2cnc(Nc3ccc(N4CCNCC4)cc3)nc12 | Tyrosine-protein kinase HCK (HCK, Homo sapiens, UniProt P08631) | enzyme activity, inhibitor | – | – | > 10
O=C(C(C(F)(F)F)C(F)(F)F)N1CCOc2ccccc21 | Rhomboid protease AarA | enzyme activity, inhibitor, fluorescence | – | – | 3.8
O=C1COc2cc(C(=O)N(Cc3ccc(C(=O)Nc4ccc5c(c4)CCN(C(=O)CCCCC(O)S(=O)(=O)O)C5)cc3)C3CC3)ccc2N1 (centres unmarked) | Histone-lysine N-methyltransferase NSD2 (NSD2, Homo sapiens, UniProt O96028) | ligand displacement, TR-FRET | – | – | 0.248
CC(C)Oc1cc(C(=O)NCC(=O)O)ccc1NC(=O)[C@H](Cc1ccccc1)NC(=O)c1ccc(N)cc1OCc1ccccc1 | Induced myeloid leukemia cell differentiation protein Mcl-1 (MCL1, Homo sapiens, UniProt Q07820) | fluorescence anisotropy competition | – | pH 7.50, added: FITC-NOXA B tracer | > 100
Cc1c(Cc2cc(Cl)cc(OC(C)C(=O)O)c2)c2ccc(C(=O)NC(C)c3ccc(C(C)(C)C)cc3)cc2n1C (centres unmarked) | PPARG | ligand displacement, TR-FRET | – | – | 0.018
Cc1nnc(-c2ccc(CC(=O)NCCOCCOCC(=O)NC(CCN3C4CCC3CC(n3c(C)nnc3C(C)C)C4)c3ccccc3)cc2)nn1 (centres unmarked) | C-C chemokine receptor type 5 (CCR5, Homo sapiens, UniProt P51681) | calcium mobilization, antagonist | HEK-293T | 2 h preincubation, top constrained to 1, added: 0.1 µM PSC-RANTES | 0.427
Cc1ccc(CNC(=O)[C@@H](NC(=O)[C@H](CCc2ccccc2)NC(=O)[C@H](CCc2ccccc2)N(C)Cc2cnccn2)C(C)C)cc1 | Psmb1/Psmb8 (Rattus norvegicus, UniProt P18421+P28064) | enzyme activity, inhibitor | – | added: Ac-ANW-aminocoumarin, PA28α 12 nM | 0.24
Cc1c(Cc2cc(F)cc(OC(C)(C)C(=O)O)c2)c2ccc(C(=O)N[C@@H](C)c3cc(F)cc(C(C)(C)C)c3)cc2n1CC(C)C | PPARG ligand-binding domain | reporter gene, luciferase reporter | HEK293T, Gal4-PPARγ LBD | – | 0.22
Cc1cc(NC2CCN(C)CC2)ccc1-c1cc2c(N3CCC[C@H](C(=O)NCc4ccc(OC(F)(F)F)cc4)C3)ncnc2[nH]1 | Ribosomal protein S6 kinase alpha-5 (RPS6KA5, Homo sapiens, UniProt O75582) | enzyme activity, inhibitor, mobility shift | – | – | > 8
Cc1nc2c(F)cc(-c3nc(Nc4ccc(C(=O)NCCCCC(=O)NO)cc4)ncc3F)cc2n1C(C)C | Histone deacetylase 1 (HDAC1, Homo sapiens, UniProt Q13547) | enzyme activity, inhibitor | – | – | 0.079
Cc1c(Cc2cccc(OC(C)C(=O)O)c2)c2ccc(C(=O)N[C@@H](C)c3cccc(C(F)(F)F)c3)cc2n1C (some centres unmarked) | PPARG | ligand displacement, TR-FRET | – | – | 0.013
Cc1ccc(NC(=O)C(C(F)(F)F)C(F)(F)F)cc1 | Rhomboid protease AarA | enzyme activity, inhibitor, fluorescence | – | – | 11
Cc1c(Cc2cccc(OC(C)C(=O)O)c2)c2ccc(C(=O)NC(C)c3ccc(C4CC4)cc3)cc2n1C (mixture of isomers) | PPARG | ligand displacement, TR-FRET | – | – | 0.0004
COC(=O)C1=CNC=C(C(=O)OC)C1c1ccc(F)c(C(F)(F)F)c1 | SCN5A | ion current, inhibitor, patch clamp | CHO | pH 7.4 | > 10

Repeated from above:
SMILES | target | assay | test system | setting | IC50 [µM]
O=C1CC(c2ccccc2)N1S(=O)(=O)c1cccc(-c2ccccc2)c1 (centres unmarked) | Rhomboid protease AarA | enzyme activity, inhibitor, fluorogenic peptide | – | 148 min pre-incubation | 6.6
